Experimental data from different studies.
Organism: Staphylococcus aureus

Structure (SMILES)	test	test system	setting	MIC
CN1C(=O)[C@@H]2NC(=O)[C@@H]3NC(=O)[C@@H](c4ccc(O)cc4)NC(=O)[C@H](NC(=O)C(NCc4cccc(O)c4O)c4ccc(O)cc4)Cc4c[nH]c5cc(ccc45)-c4cc3cc(c4O)Oc3ccc(cc3)C[C@H]1C(=O)N[C@@H](C(=O)O)c1ccc(O)c(c1)Oc1ccc2cc1 (stereo partly shown)	–	ATCC 33591 MRSA, Mueller-Hinton broth	–	16 µg/mL
COc1cccc(C2Nc3ccccc3C3=[O+][Cu-2]4([Cl])[O]c5c(cccc5OC)C=[N+]4N32)c1O (stereo not shown)	broth microdilution	MRSA clinical isolate SA 630	24 h, 37 °C	16 µg/mL
c1ccc(CCNC2CCCc3c2[nH]c2ccc(C4CCCCC4)cc32)cc1 (stereo not shown)	microbial growth, broth dilution	MRSA USA300	–	4 µg/mL
CC[C@H](C)[C@H](NC(=O)[C@H](CC(C)C)NC(=O)[C@H](CC(=O)O)NC(=O)[C@H](CO)NC(=O)[C@H](CCCNC(=N)N)NC(=O)[C@@H](N)CO)C(=O)N[C@H](C(=O)N[C@@H](Cc1c[nH]cn1)C(=O)N[C@@H](CCC(N)=O)C(=O)N[C@@H](CCCNC(=N)N)C(=O)N[C@@H](CC(C)C)C(=O)N[C@@H](Cc1ccccc1)C(N)=O)C(C)C	broth microdilution	Mueller Hinton broth	–	> 400 µg/mL
CCCCCCCCCCCCCCCC(=O)N[C@@H](Cc1c[nH]cn1)C(=O)N[C@@H](Cc1ccccc1)C(=O)N[C@@H](CCCNC(=N)N)C(=O)N[C@@H](Cc1c[nH]c2ccccc12)C(=O)NCC(=O)N[C@@H](CCCCN)C(=O)N1CCC[C@H]1C(=O)N[C@H](C(N)=O)C(C)C	broth microdilution	MSSA ATCC 29213	Mueller-Hinton broth	> 45.5 µM
C=CCCC[C@@H]1NC(=O)[C@H](CC(C)C)NC(=O)[C@H](C)NC(=O)[C@H](NC(=O)[C@H](CO)NC(=O)[C@@H](CCCCN)NC(=O)[C@@H](CCCC=C)NC(=O)[C@@H](N)Cc2ccccc2)[C@H](C)OC1=O	–	MRSA ATCC 700698	TFA salt	4 µg/mL
CC(C)[C@H](NC(=O)[C@H](CCCCN)NC(=O)[C@H](CCCNC(=N)N)NC(=O)[C@@H](NC(=O)[C@H](C)NC(=O)[C@H](CC(N)=O)NC(=O)[C@H](CCCNC(=N)N)NC(=O)[C@@H](NC(=O)[C@H](CCCCN)NC(=O)[C@H](CCCCN)NC(=O)[C@@H](NC(=O)[C@@H](NC(=O)[C@H](CCCNC(=N)N)NC(=O)[C@H](CCCNC(=N)N)NC(=O)[C@H](Cc1c[nH]c2ccccc12)NC(=O)[C@H](Cc1c[nH]c2ccccc12)NC(=O)CN)[C@@H](C)O)C(C)C)C(C)C)C(C)C)C(=O)O	bacterial growth	ATCC 25923	18 h	32 µg/mL
CCCCCCCCCCCCCCN1C(=O)/C(=N\NC(=N)N)c2cc(C)ccc21	broth microdilution	BAA41 MRSA	18 h, 37 °C	> 192 µg/mL
COc1ccc2ccc3c(c2c1)C=[N+]1C2CCCCC2[N+]2=Cc4cccc(OC)c4[O][Au-]21[O]3.F[P-](F)(F)(F)(F)F (stereo not shown)	bacterial growth, broth microdilution	vancomycin-intermediate	24 h	20 µM
CC(C)=CCc1cc2c(cc1O)OCc1c-2oc2c(CC=C(C)C)c(O)ccc12	–	–	–	inactive
CCCCc1ccc(-c2nc(C)c(C(C)=NNC(=N)N)s2)cc1	–	VRS1 VRSA	–	0.7 µg/mL
Cc1cc(=O)nc(NC(=O)NCCCCCCNC(=O)NCCCCCCNC(=O)OCCOCCOCCOCCOCCOCCOCC(=O)N[C@@H](CCCCN)C(=O)N[C@@H](CCCCN)C(=O)N[C@@H](Cc2ccccc2)C(=O)N2CCC[C@H]2C(=O)N[C@@H](Cc2c[nH]c3ccccc23)C(=O)N[C@@H](Cc2c[nH]c3ccccc23)C(=O)N[C@@H](Cc2c[nH]c3ccccc23)C(=O)N2CCC[C@H]2C(=O)N[C@@H](Cc2ccccc2)C(=O)N[C@@H](CCCCN)C(=O)N[C@@H](CCCCN)C(N)=O)[nH]1	–	MRSA AMC 201, RPMI medium	24 h, 37 °C	30 µM
CC[C@H](C)[C@H](NC(=O)[C@H](CCCCN)NC(=O)[C@H](CC(N)=O)NC(=O)[C@H](Cc1c[nH]c2ccccc12)NC(=O)[C@H](Cc1ccccc1)NC(=O)[C@H](CCCCN)NC(=O)[C@H](CCCNC(=N)N)NC(=O)[C@H](CC(C)C)NC(=O)[C@H](Cc1c[nH]c2ccccc12)NC(=O)[C@H](CCCCN)NC(=O)[C@H](CCCNC(=N)N)NC(=O)[C@H](CC(C)C)NC(=O)CNC(C)=O)C(=O)N[C@@H](CCCCN)C(=O)N[C@@H](CCCNC(=N)N)C(N)=O	broth microdilution	multidrug-resistant	–	3.12 µM
CCCCCCCCCCCC(=O)NCCCC[C@H](N)C(=O)N[C@@H](CCCNC(=N)N)C(=O)N[C@@H](CCCNC(=N)N)C(=O)N[C@@H](CCCNC(=N)N)C(=O)N[C@@H](CCCNC(=N)N)C(=O)N[C@@H](CCCNC(=N)N)C(=O)O	broth microdilution	MRSA ATCC 43300	37 °C	69.3 µg/mL
CC[C@H](C)[C@H](NC(=O)[C@H](CC(=O)O)NC(=O)[C@H](Cc1ccccc1)NC(=O)[C@H](CC(C)C)NC(=O)CN)C(=O)N[C@H](C(=O)N[C@@H](CCCCN)C(=O)N[C@@H](CCCCN)C(=O)N[C@H](C(=O)N[C@@H](CC(C)C)C(=O)N[C@@H](CCCCN)C(=O)N[C@@H](CC(C)C)C(=O)N[C@@H](CC(C)C)C(=O)N[C@@H](CCCCN)C(N)=O)C(C)C)C(C)C	–	ATCC 43300, CAMHB	18 h, 37 °C	> 20 µM
CNC(CC(C)C)C(=O)NC1C(=O)NC(CC(N)=O)C(=O)NC2C(=O)NC3C(=O)NC(C(=O)NC(C(=O)O)c4cc(O)cc(O)c4-c4cc3ccc4O)C(O)c3ccc(c(Cl)c3)Oc3cc2cc(c3OC2OC(CO)C(O)C(O)C2OC2CC(C)(NCc3ccc(-c4ccc(Cl)cc4)cc3)C(O)C(C)O2)Oc2ccc(cc2Cl)C1O (stereo not shown)	–	MRSA ATCC 43300	–	0.08 µg/mL
CCS(=O)(=O)[C@H]1[C@H](O)[C@@H](N)[C@@H](O[C@H]2[C@H](O[C@@H]3O[C@H](CO)[C@@H](O[C@H]4O[C@@H](CN)[C@@H](O)[C@H](O)[C@H]4N)[C@H]3O)[C@@H](O)[C@H](N)C[C@@H]2N)O[C@@H]1CO	–	methicillin-resistant, AAC(6') ANT(4',4'') APH(3')	–	> 64 µg/mL
CCN1CCNC1=[S+][Ag-3]([O][N+](=O)[O-])([P+](c1ccccc1)(c1ccccc1)c1ccccc1)[P+](c1ccccc1)(c1ccccc1)c1ccccc1	agar dilution	MTCC 740	24 h, 37 °C	10 µg/mL
CC[C@@H](C)[C@@H](NC(=O)[C@@H](CCCCN)NC(=O)[C@H]1CCCN1C(=O)[C@H](NC(=O)[C@@H](CC(C)C)NC(=O)[C@@H](CCCCN)NC(=O)[C@@H](CC(C)C)NC(=O)[C@H](NC(=O)[C@@H](CO)NC(=O)CNC(=O)[C@@H](Cc1ccccc1)NC(=O)[C@H](N)Cc1ccccc1)C(C)C)[C@H](C)CC)C(=O)N[C@H](CC(C)C)C(N)=O	broth microdilution	USA300 MRSA	–	3.12 µM

Excerpt of the above:
Structure (SMILES)	test	test system	setting	MIC
CC[C@@H](C)[C@@H](NC(=O)[C@@H](CCCCN)NC(=O)[C@H]1CCCN1C(=O)[C@H](NC(=O)[C@@H](CC(C)C)NC(=O)[C@@H](CCCCN)NC(=O)[C@@H](CC(C)C)NC(=O)[C@H](NC(=O)[C@@H](CO)NC(=O)CNC(=O)[C@@H](Cc1ccccc1)NC(=O)[C@H](N)Cc1ccccc1)C(C)C)[C@H](C)CC)C(=O)N[C@H](CC(C)C)C(N)=O	broth microdilution	USA300 MRSA	–	3.12 µM
